Experimental data collected from several papers.
Protocols differ between the studies behind these lines. Values joined by “and” are separate records of one study, mostly repeats; a detail may differ. ± marks the error that the study gave.

| Compound | test | system | setting | how to read | measurement | value |
| --- | --- | --- | --- | --- | --- | --- |
| NC(=O)N1c2ccccc2C=Cc2ccccc21 | – | healthy human subjects, plasma | oral, dose not given, day 21, twice daily, with glecaprevir and pibrentasvir | – | AUC(0-12h) | 81600 ng·h/mL |
| CN1C(=O)[C@@H](NC(=O)c2nnc(Cc3ccccc3)[nH]2)COc2cccnc21 | – | human, plasma | oral, 600 mg once daily, day 14, geometric mean | – | terminal half-life | 8.2 h |
| CCCC[C@H](NC(=O)[C@@H](NC(=O)[C@H](CCC(=O)O)NC(=O)[C@]1(C)CCCC=CCCC[C@](C)(NC(=O)CNC(=O)[C@H](Cc2ccccc2)NC(=O)[C@H](CCCCN)NC(=O)[C@H](CCCCN)NC(=O)[C@H](C)NC(=O)[C@H](CO)NC(=O)[C@H](Cc2c[nH]cn2)NC(=O)[C@H](CC(C)C)NC(=O)[C@H](Cc2ccccc2)NC(=O)[C@H](CCCCN)NC(=O)CNC(=O)[C@@H](NC(=O)CN)[C@@H](C)CC)C(=O)N[C@@H](C)C(=O)N[C@@H](Cc2ccccc2)C(=O)N[C@@H](C(C)C)C(=O)N1)[C@@H](C)CC)C(=O)N[C@@H](CC(N)=O)C(=O)N[C@@H](CO)C(N)=O | HPLC C18 column | – | – | – | retention time | 13.6 min |
| Cc1cc(NC2CCN(C(=O)OC3CCN(C(=O)/C=C/CN(C)C)C3)CC2)n2ncc(C(C)C)c2n1 (stereo not drawn) | Phase I dose escalation CTCAE v4.0, measured: Ascites | patients with advanced solid tumours | dose not given, all dose schedules any grade | – | patients with adverse event | 6% |
| COc1cc2nccc(Oc3ccc(NC(=O)c4cc5c(n(-c6ccccc6)c4=O)CCCC5=O)nc3)c2cc1OC | – | human, relapsed/refractory AML | oral, dose not given, CTCAE, all doses combined | – | patients, with TEAEs, drug-related grade ≥3 | 10% |
| Cc1ccc([C@@H]2O[C@H](CO)[C@@H](O)[C@H](O)[C@H]2O)cc1Cc1ccc(-c2ccc(F)cc2)s1 | – | human, maintenance hemodialysis patients | oral, 300 mg once daily, steady state, mean | – | trough concentration | 340 µg/L |
| COc1cc2c3c(n(CCCN4CCOCC4)c(=O)c2cc1OC)-c1cc2c(cc1C3=O)OCO2 | – | beagle dog, female, plasma | intravenous infusion, 215 mg/m^2, 1 h infusion | – | Vz | 502 L/m² and 394 L/m² |
| O=C(O)CCCOc1ccc([18F])cc1-c1cc(-c2ccccc2C(F)(F)F)n(-c2ccccc2)n1 | gamma counting | male ddY mice, muscle | intravenous, 2.1 MBq, 60 min | – | radioactivity uptake | 1.18 ± 0.27 SUV |
| CN(CC#N)C(=O)C[C@H](Nc1nc2ccccc2[nH]1)c1cccc(C(F)(F)F)c1 | – | human | intravenous infusion, 6 mg/kg, 1 mg/mL formulation | – | terminal half-life | 4.2 ± 0.8 h |
| C[C@@H](Oc1ccc(S(C)(=O)=O)cc1C(=O)N1C[C@@H]2C[C@]2(c2cc(C(F)(F)F)on2)C1)C(F)(F)F | measured: 14C radioactivity | human, urine | oral, 25 mg, 0 to 677 h, geometric mean | relative to: dose | urinary excretion | 48.1% |
| CCC(C)n1ncn(-c2ccc(N3CCN(c4ccc(OCC5COC(Cn6cncn6)(c6ccc(Cl)cc6Cl)O5)cc4)CC3)cc2)c1=O (stereo not drawn) | measured: throat irritation | healthy human participants | oral, 200 mg, compound alone cohort | – | adverse event incidence | 7% |
| C[C@@H](N)C1CCN(S(=O)(=O)c2cccc3cnccc23)CC1 | measured: Hypotension | healthy volunteers | 150 mg, fed | – | TEAE incidence | 0% |
| Cc1c(-c2ccc(N3CCc4cccc(C(=O)Nc5nc6ccccc6s5)c4C3)nc2C(=O)O)cnn1CC12CC3(C)CC(C)(C1)CC(OCCNCC[C@H](O)CO)(C3)C2 | – | anaesthetized male beagle dog | iv infusion, 0.3 mg/kg/min, 10 min | – | plasma concentration | 133 ng/mL and 422 ng/mL |
| CC(=O)N[C@@H](CNC(=O)c1cc(NC(=O)c2cc(NC(=O)c3cc(NC(=O)c4nccn4C)cn3C)cn2C)cn1C)CC(=O)Nc1cn(C)c(C(=O)Nc2cc(C(=O)Nc3cc(C(=O)Nc4cc(C(=O)NCCCN(C)CCCNC(=O)c5cccc(C(=O)O)c5)n(C)c4)n(C)c3)n(C)c2)n1 | dynamic light scattering | 0.1% DMSO in PBS | 25 °C | – | critical aggregation concentration | 4 µM |
| C=CC(=O)Nc1cc(Nc2nccc(-c3cn(C)c4ccccc34)n2)c(OC)cc1N(C)CCN(C)C | storage stability | human dried blood spots | 5 h, on ice, high QC level | – | recovery | 97.9% |
| O=C(N[C@H](Cc1c[nH]c2ccccc12)C(=O)Nc1ccncc1)c1ccc(N2CCN(c3ccc(F)c(F)c3)CC2)cc1F | – | Swiss Webster mouse, female, lung | oral, 50 mg/kg, 2 h, 20% HPβCD vehicle | – | concentration | 1510 nM |
| C=CS(=O)(=O)Nc1ccc(OC)c(-c2c[nH]c3ncc(-c4cncc(C(=O)N(C)C)c4)cc23)c1 | HPLC | acetonitrile/water/DMSO | 50 µM, 37 °C, DIPEA 20 eq, added: N-α-acetyl-lysine | – | reactivity half-life | > 24 h |
| O=C([O-])CCCCCCCNC(=O)c1ccccc1O.[Na+] | – | healthy postmenopausal women | oral, 300 mg, geometric mean, added: oral contraceptive plus oral semaglutide | – | AUC(0-24h) | 1820 ng·h/mL |
| C=CCN1CC(=O)N2[C@@H](Cc3ccc(O)cc3F)C(=O)N(Cc3cccc(N4CC(N5CCN(CC)CC5)C4)n3)C[C@@H]2N1C(=O)NCc1ccccc1 | – | advanced solid tumour patients | oral, 45 mg twice daily, any grade, dose-escalation | – | treatment-related vomiting | 75% |
| CCc1c(-c2ccccc2)c(-c2ccccc2)nn1-c1ccccc1-c1cccc(OCC(=O)O)c1 | – | Sprague-Dawley rat | intravenous | – | Vss observed | 0.595 L/kg and 0.631 L/kg and 0.482 L/kg |

| Compound | test | system | setting | how to read | measurement | value |
| --- | --- | --- | --- | --- | --- | --- |
| CC(C)C[C@H](NC(=O)[C@@H](Cc1c[nH]c2ccccc12)NC(=O)[C@H](Cc1ccc(O)cc1)NC(=O)[C@H](CO)NC(=O)[C@H](Cc1c[nH]c2ccccc12)NC(=O)[C@H](Cc1c[nH]cn1)NC(=O)[C@@H]1CCC(=O)N1)C(=O)N[C@@H](CCCNC(=N)N)C(=O)N1CCC[C@H]1C(=O)NCC(N)=O | – | Chinese CPP children, girls | intramuscular, 22.5 mg, 12 months, day 1, month 6 | – | patients, drug-related nocturnal emission | 0% |
| O=C1CC[C@H](N2Cc3cc(N4CCN(CC5CCN(c6ccc([C@@H]7c8ccc(O)cc8CC[C@@H]7c7ccccc7)cc6)CC5)CC4)ccc3C2=O)C(=O)N1 | – | human | oral, 200 mg, added: rosuvastatin 10 mg | – | participants with TEAEs | 25% |
| CCCCC[C@H]1CC[C@H](c2ccc(OCC)c(F)c2F)CC1 | – | rat, fetus | 1000 ng/mL in perfusate, middle dose, mixture of 21 LCMs | – | fetal accumulation | 0.363 ± 0.616 ng/g |
| CCCCOC(=O)N1CCN(C(=O)[C@H](CP(=O)(O)O)NC(=O)c2cc(N3CC[C@H](OC)C3)nc(-c3ccccc3)n2)CC1 | measured: creatinine | human, serum | 16 mg, 24 h post-dose | – | change from baseline | -0.1 ± 8 µmol/L |
| CCOc1c([C@H](C)n2nc(C)c3c(N)ncnc32)cc(Cl)c(F)c1[C@@H]1CNC(=O)C1 | ECG | previously treated B-cell malignancy patients | oral, 10 mg once daily, baseline below thresholds | – | observations with PR ≤200 ms | 100% |
| CC(C)(C(=O)N1CCOc2c(C#N)cncc2C1)C(F)F | measured: vessel puncture site haemorrhage | human, both sexes | oral, 15 mg twice daily, 14 days, multiple ascending dose | – | subjects with TEAE | 0% |
| CNC(=O)c1cccc(-c2ccc([C@@H](O)[C@H]3O[C@H](CO)[C@@H](O)[C@H](O)[C@@H]3O)c(C)c2)c1 | – | Sprague-Dawley rat, male, plasma | intravenous, 3 mg/kg | – | Vss | 0.759 L/kg and 0.881 L/kg and 0.583 L/kg |
| O=C(Nc1nc2cccc(-c3ccc(CN4CCS(=O)(=O)CC4)cc3)n2n1)C1CC1 | measured: cardiac disorders | human rheumatoid arthritis patients | oral, 150 mg once daily, 4 weeks, regardless of relatedness | – | treatment-emergent adverse events | 0% |
| NC[C@@]1(CC(=O)O)[C@@H]2CC[C@H]3C[C@@H]2[C@@H]1C3 | – | human, normal renal function, plasma | dose not given, geometric mean | – | AUC(0-inf) unbound | 1610 ng·h/mL |
| O=C(c1cccnc1-c1ccncc1)N1CCC(O)(Cc2ccccc2)CC1 | – | healthy Japanese adults, plasma | oral, 200 mg single dose | – | Vz/F | 4260 L |
| NC1(C(=O)N[C@@H](CCO)c2ccc(Cl)cc2)CCN(c2nc[nH]c3nccc2-3)CC1 | – | human mCRPC patients | oral, twice daily, 4/7 days, any grade, treatment-related, added: enzalutamide 160 mg daily | – | systemic inflammatory response syndrome incidence | 6.7% |
| CCc1cc(C(=O)NC)c2nccc(N3CCc4c(cc(Cn5ccnc5)cc4-c4cn(C)nc4C(F)(F)F)C3=O)c2c1 | – | Sprague Dawley rat | oral, 50 mg/kg once daily, 7 days | – | brain weight | 1.81 ± 0.072 g |
| Cc1cc(C(=O)NC(C)(C)COc2cccc3c2C(N)=NS(=O)(=O)N3)cc(C)n1 | – | Sprague-Dawley rat, male, plasma | oral, 100 mg/kg | – | dose-normalised AUC(0-last) | 0.97 ng·h/mL/mg/kg |
| N#Cc1ccc2c(c1)[C@H]1CCCN(C(=O)c3ccc4[nH]cnc4c3)[C@H]1C2 | – | human males | 20 mg, day 7 | – | total testosterone level | 10.2 nmol/L |
| O=c1c2ccccc2oc2ccccc12 | – | tricaprin-tricaprylin mixture | 30 °C, tricaprin fraction 1.00 | – | solubility | 0.0275 mole fraction |
| CNCc1ccc(-c2[nH]c3cc(F)cc4c3c2CCNC4=O)cc1 | – | human patients | oral, 600 mg twice daily, grade 3 | – | incidence of neutropenia | 11.5% |
| O=C(O)CCC(=O)O.[2H]C([2H])([2H])Oc1cc(C)c2[nH]ccc2c1CN1CC[C@@H](C2CC2)C[C@H]1c1ccc(C(=O)O)cc1 | – | human, plasma | 125 mg twice daily, day 10, multiple ascending dose, median | – | Tmax | 2.25 h |
| COc1cccc(OC)c1-c1cc(C(=O)NC2(C(=O)O)C3CC4CC(C3)CC2C4)nn1-c1ccc(C(=O)N(C)CCCN(C)CCCN(C)C(=O)CN2CCN(CC(=O)[O-])CCN(CC(=O)[O-])CCN(CC(=O)[O-])CC2)cc1C(C)C.[177Lu+3] (stereo not drawn) | – | mouse, HT-29 xenograft | 4 h post injection, biodistribution | relative to: tumour over kidney uptake | tumour-to-kidney ratio | 5.44 |
| COc1ccc2c(c1)CN(C(=O)CCN1CCC(Cc3ccccc3)CC1)CC[S@@+]2[O-] | telemetry | conscious dog | intravenous, 2 mg/kg, 4 h | – | diastolic blood pressure | 77 ± 7 mmHg |

Repeated from above:
| Compound | test | system | setting | how to read | measurement | value |
| --- | --- | --- | --- | --- | --- | --- |
| NC1(C(=O)N[C@@H](CCO)c2ccc(Cl)cc2)CCN(c2nc[nH]c3nccc2-3)CC1 | – | human mCRPC patients | oral, twice daily, 4/7 days, any grade, treatment-related, added: enzalutamide 160 mg daily | – | systemic inflammatory response syndrome incidence | 6.7% |
| CN1C(=O)[C@@H](NC(=O)c2nnc(Cc3ccccc3)[nH]2)COc2cccnc21 | – | human, plasma | oral, 600 mg once daily, day 14, geometric mean | – | terminal half-life | 8.2 h |
| C=CCN1CC(=O)N2[C@@H](Cc3ccc(O)cc3F)C(=O)N(Cc3cccc(N4CC(N5CCN(CC)CC5)C4)n3)C[C@@H]2N1C(=O)NCc1ccccc1 | – | advanced solid tumour patients | oral, 45 mg twice daily, any grade, dose-escalation | – | treatment-related vomiting | 75% |
| COc1cc2nccc(Oc3ccc(NC(=O)c4cc5c(n(-c6ccccc6)c4=O)CCCC5=O)nc3)c2cc1OC | – | human, relapsed/refractory AML | oral, dose not given, CTCAE, all doses combined | – | patients, with TEAEs, drug-related grade ≥3 | 10% |
